Results pooled from the literature.
Cell line: HeLa

SMILES | effect on | technique | time | pH | IC50
O=C(Cc1ccc2ccccc2c1)N[C@H](Cc1ccccc1)C(=O)N[C@H](Cc1ccc(O)cc1)C(=O)N[C@H](Cc1ccccc1)C(=O)N[C@H](Cc1ccc(O)cc1)C(=O)O | cell growth or viability | MTT | – | – | > 500 µg/mL
CC[C@H](C)[C@H](NC(=O)[C@H](CCCCN)NC(=O)[C@@H](NC(=O)[C@H](CCC(N)=O)NC(=O)[C@@H](N)CCCNC(=N)N)[C@@H](C)CC)C(=O)N[C@@H](Cc1c[nH]c2ccccc12)C(=O)N[C@@H](Cc1ccccc1)C(=O)N[C@@H](CCC(N)=O)C(=O)N[C@@H](CC(N)=O)C(=O)N[C@@H](CCCNC(=N)N)C(=O)N[C@@H](CCCNC(=N)N)C(=O)N[C@@H](CCSC)C(=O)N[C@@H](CCCCN)C(=O)N[C@@H](Cc1c[nH]c2ccccc12)C(=O)N[C@@H](CCCCN)C(=O)N[C@@H](CCCCN)C(N)=O | cytotoxicity | – | – | – | 29.6 µM
NC(=O)CC[C@@H](NC(=O)[C@@H](CCC(N)=O)NC(=O)[C@@H](CC(N)=O)NC(=O)[C@@H](CC(N)=O)NC(=O)CNC(=O)Cc1ccc2ccccc2c1)C(=O)N[C@H](CC(N)=O)C(=O)N[C@H](Cc1ccc(OP(=O)(O)O)cc1)C(=O)O | – | – | – | – | > 500 µM
Cc1nn(-c2ccccc2)c(O)c1C(c1ccccc1[N+](=O)[O-])c1c(C)nn(-c2ccccc2)c1O | cell growth or viability | MTT | 48 h | – | 39.2 µM
CC(C)C[C@H](NC(=O)[C@H](CC(C)C)NC(=O)[C@H](CCC(=O)O)NC(=O)[C@H](CCC(=O)O)NC(=O)[C@H](CC(C)C)NC(=O)[C@H](Cc1c[nH]cn1)NC(=O)[C@H](Cc1c[nH]cn1)NC(=O)[C@H](CC(C)C)NC(=O)[C@H](CC(C)C)NC(=O)[C@H](CCC(=O)O)NC(=O)[C@H](CCC(=O)O)NC(=O)[C@@H](N)CC(C)C)C(=O)N[C@@H](Cc1c[nH]cn1)C(=O)N[C@@H](Cc1c[nH]cn1)C(N)=O | cell growth or viability | MTT | – | pH 6 | > 100 µM
CCCCCCCCCc1ccc(C(=O)N[C@@H](CO)C(=O)N[C@H](C(=O)N[C@@H](C)C(=O)N[C@H](C(N)=O)[C@@H](C)CC)[C@@H](C)OP(=O)(O)O)cc1 | cell growth or viability | MTT | 72 h | – | 38.2 µM
C[C@H]1O[C@@H](O[C@H]2CC[C@@]3(C)[C@H](CC[C@@H]4[C@@H]3C[C@@H](O)[C@]3(C)[C@@H](C5=CC(=O)OC5)CC[C@]43O)C2)C[C@H](O)[C@@H]1O[C@@H]1O[C@H](CO)[C@@H](O)[C@H](O)[C@H]1O | cell growth or viability | MTT | 48 h | – | 0.16 µM
COc1cc(/C=C(\C#N)C(=O)Nc2nnc(C(F)(F)F)s2)ccc1OC(=O)N1CCN(C(=O)CCCC(=O)NCCCC[C@@H]2NC(=O)[C@@H](Cc3ccc(O)cc3)NC(=O)[C@H](CC(=O)O)NC(=O)CNC(=O)[C@H](CCCNC(=N)N)NC2=O)CC1 | cell growth or viability | MTT | 48 h | – | > 100 µM
C[C@H]1[C@H](OC(=O)CCC(=O)OCCc2ccc(O)cc2)O[C@@H]2O[C@@]3(C)CC[C@H]4[C@H](C)CC[C@@H]1[C@@]24OO3 | cell growth or viability | MTT | – | – | 2.66 µM

For quick reference, copied from above:
SMILES | effect on | technique | time | pH | IC50
CC(C)C[C@H](NC(=O)[C@H](CC(C)C)NC(=O)[C@H](CCC(=O)O)NC(=O)[C@H](CCC(=O)O)NC(=O)[C@H](CC(C)C)NC(=O)[C@H](Cc1c[nH]cn1)NC(=O)[C@H](Cc1c[nH]cn1)NC(=O)[C@H](CC(C)C)NC(=O)[C@H](CC(C)C)NC(=O)[C@H](CCC(=O)O)NC(=O)[C@H](CCC(=O)O)NC(=O)[C@@H](N)CC(C)C)C(=O)N[C@@H](Cc1c[nH]cn1)C(=O)N[C@@H](Cc1c[nH]cn1)C(N)=O | cell growth or viability | MTT | – | pH 6 | > 100 µM
